Assay results pooled from the literature.
Each line is one published result; not all experiments were run side by side. ± marks the error that the study gave.
Sequence of UniProt P10721 (whole entry, looked up): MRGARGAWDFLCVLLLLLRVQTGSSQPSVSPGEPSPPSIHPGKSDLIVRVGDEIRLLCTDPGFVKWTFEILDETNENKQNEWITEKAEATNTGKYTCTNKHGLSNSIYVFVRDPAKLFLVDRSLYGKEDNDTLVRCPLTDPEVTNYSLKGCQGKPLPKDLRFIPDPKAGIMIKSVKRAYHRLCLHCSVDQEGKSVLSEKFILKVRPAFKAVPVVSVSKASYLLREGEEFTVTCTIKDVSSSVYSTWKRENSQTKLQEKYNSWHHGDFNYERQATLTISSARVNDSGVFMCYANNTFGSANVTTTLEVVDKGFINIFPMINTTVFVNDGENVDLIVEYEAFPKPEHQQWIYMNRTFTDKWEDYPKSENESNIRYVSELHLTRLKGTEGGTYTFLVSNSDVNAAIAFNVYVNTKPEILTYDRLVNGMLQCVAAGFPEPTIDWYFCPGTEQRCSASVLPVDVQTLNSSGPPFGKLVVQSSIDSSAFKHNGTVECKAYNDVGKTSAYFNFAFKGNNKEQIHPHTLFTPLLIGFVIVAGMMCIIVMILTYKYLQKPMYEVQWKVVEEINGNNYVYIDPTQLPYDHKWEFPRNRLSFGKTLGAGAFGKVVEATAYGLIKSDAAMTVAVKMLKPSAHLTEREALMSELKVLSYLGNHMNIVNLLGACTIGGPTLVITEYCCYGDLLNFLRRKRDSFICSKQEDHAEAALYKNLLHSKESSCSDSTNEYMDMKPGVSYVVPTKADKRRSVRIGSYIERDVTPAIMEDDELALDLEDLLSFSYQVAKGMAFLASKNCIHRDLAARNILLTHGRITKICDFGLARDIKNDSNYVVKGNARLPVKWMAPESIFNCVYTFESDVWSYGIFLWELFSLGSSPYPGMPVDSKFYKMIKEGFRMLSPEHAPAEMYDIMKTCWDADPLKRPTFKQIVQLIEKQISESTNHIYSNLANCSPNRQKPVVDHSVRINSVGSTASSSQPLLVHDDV

For `COc1ccccc1-c1n[nH]c2nc(N[C@H]3CC[C@H](NS(=O)(=O)CC(C)C)CC3)ncc12`, the relative abundance was 0.99 (bead binding, competition bead pull-down, refers to: LINJ.10.0430; Leishmania donovani extract; 10 µM; relative to: vehicle).
The MIC of `CC[C@H](C)[C@H](NC(=O)[C@H](CCCNC(=N)N)NC(=O)[C@H](CC(=O)O)NC(=O)[C@H](CCCNC(=N)N)NC(=O)[C@H](CC(C)C)NC(=O)[C@H](CC(N)=O)NC(=O)[C@H](CCCNC(=N)N)NC(=O)[C@@H](N)Cc1ccccc1)C(=O)N[C@@H](CCCCN)C(=O)N[C@@H](CC(N)=O)C(=O)N[C@@H](CCCCN)C(=O)N[C@@H](Cc1ccccc1)C(=O)N[C@@H](CCC(=O)O)C(=O)N[C@@H](CC(N)=O)C(=O)N[C@@H](C)C(=O)N[C@@H](CC(C)C)C(=O)N[C@@H](CCCCN)C(=O)N[C@@H](CC(N)=O)C(=O)N[C@H](C(=O)N[C@H](C(=O)N[C@@H](CC(N)=O)C(=O)N[C@@H](CCCCN)C(=O)N[C@@H](CC(C)C)C(=O)N[C@@H](Cc1ccccc1)C(=O)N1CCC[C@H]1C(=O)O)[C@@H](C)CC)C(C)C` is reported as 20.7 µM (Bordetella bronchiseptica; broth microdilution; ATCC 10580).
The MIC of `CCCCCCCC(=O)NCCCC[C@H](NC(=O)CCCCCCC)C(=O)N[C@@H](CCCCNC(=O)CCCCCCC)C(=O)NCC(=O)NCC(=O)NCC(=O)N[C@@H](CS)C(=O)N[C@@H](CCCNC(=N)N)C(=O)N[C@@H](CCCCN)C(=O)N1CCC[C@H]1C(=O)N[C@@H](CS)C(=O)N[C@@H](CCCNC(=N)N)C(=O)N[C@@H](CCCCN)C(=O)N1CCC[C@H]1C(=O)N[C@@H](CS)C(=O)N[C@@H](CCCNC(=N)N)C(=O)N[C@@H](CCCCN)C(=O)N1CCC[C@H]1C(N)=O` is reported as 16 µM (Candida albicans; broth microdilution; 17546, RPMI-1640; 48 h, 30 °C).
With `C[N+]1=C2C(c3ccc([N+](=O)[O-])cc3)=[N+]([O-])c3ccccc3N2CCC1` the MIC was 0.25 to 1 µg/mL (Fusobacterium nucleatum).
`CN[C@H](CC(C)C)C(=O)N[C@H]1C(=O)N[C@@H](CC(N)=O)C(=O)N[C@H]2C(=O)N[C@H]3C(=O)N[C@H](C(=O)N[C@H](C(=O)NCc4cn(CC(=O)N[C@H](C(=O)N[C@@H](CCN)C(=O)N[C@H]5CCNC(=O)[C@H]([C@@H](C)O)NC(=O)[C@H](CCN)NC(=O)[C@H](CCN)NC(=O)[C@H](CC(C)C)NC(=O)[C@@H](CC(C)C)NC(=O)[C@H](CCN)NC5=O)[C@@H](C)O)nn4)c4cc(O)cc(O)c4-c4cc3ccc4O)[C@H](O)c3ccc(c(Cl)c3)Oc3cc2cc(c3O[C@@H]2O[C@H](CO)[C@@H](O)[C@H](O)[C@H]2O[C@H]2C[C@](C)(N)[C@H](O)[C@H](C)O2)Oc2ccc(cc2Cl)[C@H]1O` has an MIC of at most 0.003 µM (Staphylococcus simulans; broth microdilution; 22, cation-adjusted Mueller-Hinton broth).
`CC(C)CCCCCCCCC/C=C/C(=O)N[C@@H](CC(=O)O)C(=O)N[C@H]1CNC(=O)[C@@H]2CCCN2C(=O)[C@H](C(C)C)NC(=O)[C@@H](CN)NC(=O)CNC(=O)[C@H](CC(=O)O)NC(=O)CNC(=O)[C@H](CC(=O)O)NC(=O)[C@H](CC(=O)O)NC(=O)[C@H]2CCCCN2C1=O` has an MIC of 4 µg/mL (Staphylococcus simulans; broth microdilution; 22, Mueller-Hinton broth, Mg2+ 10 mg/L; 16 h, 30 °C, with: Ca2+ 5 mM).
With `CC(C)[C@H]1NC(=O)C[C@H]2/C=C/CCSSC[C@@H](NC1=O)C(=O)N[C@H](Cc1cccc3ccccc13)C(=O)NCC(=O)O2` the inhibition was -1.2% (Mast/stem cell growth factor receptor Kit (KIT, Homo sapiens, UniProt P10721); enzyme activity, inhibitor; 10 µM).
`C[C@@H]1C(=O)O[C@@H](C)/C=C/C=C\[C@@H](C)[C@@H]2C=C[C@@H]3C[C@@]4(C)O[C@H]4[C@@H](C)[C@H]3[C@@H]2C(=O)C(Cl)(Cl)C1=O` has an MIC of 0.05 µg/mL (Staphylococcus aureus; MSSA clinical isolate; no listed resistance).
With `C=C1NC(=O)C2C[S+]([O-])CC3NC(=O)C(CSC(C)C(NC(=S)C(Cc4cnc[nH]4)NC(=O)c4csc(C(C)NC(C)=O)n4)C(=O)N[C@H](CC(C)C(=O)NC(=O)CC(C(=O)O)NC(=O)C(C)NC3=O)C(=O)N2)NC(=O)[C@@H]2CCCN2C(=O)[C@@H](CC(C)C)NC1=O` (stereo partly drawn) the MIC was over 32 µg/mL (Candida glabrata; EUCAST broth microdilution; clinical isolate, RPMI 1640 MOPS-buffered 2% glucose; 48 h, pH 7.0, 24 °C).
The MIC of `CCCCCCCC(=O)NCCCC[C@H](NC(=O)CCCCCCC)C(=O)N[C@@H](CCCCNC(=O)CCCCCCC)C(=O)NCC(=O)NCC(=O)NCC(=O)N[C@@H](CS)C(=O)N[C@@H](CCCNC(=N)N)C(=O)N[C@@H](CCCCN)C(=O)N1CCC[C@H]1C(=O)N[C@@H](CS)C(=O)N[C@@H](CCCNC(=N)N)C(=O)N[C@@H](CCCCN)C(=O)N1CCC[C@H]1C(=O)N[C@@H](CS)C(=O)N[C@@H](CCCNC(=N)N)C(=O)N[C@@H](CCCCN)C(=O)N1CCC[C@H]1C(=O)N[C@@H](CS)C(=O)N[C@@H](CCCNC(=N)N)C(=O)N[C@@H](CCCCN)C(=O)N1CCC[C@H]1C(N)=O` is reported as 16 µM (Candida albicans; broth microdilution; 56452, RPMI-1640; 48 h, 30 °C).
The relative abundance of `COc1ccccc1-c1n[nH]c2nc(NC3CCN(C(=O)Cc4ccc(F)cc4F)CC3)ncc12` is reported as 1.23 (bead binding, competition bead pull-down, refers to: LINJ.26.0840; Leishmania donovani axenic amastigote extract; 10 µM; relative to: vehicle).
`CC[C@H](C)[C@H](NC(=O)[C@H](CO)NC(=O)[C@H](Cc1ccc(O)cc1)NC(=O)[C@H](Cc1ccc(O)cc1)NC(=O)[C@H](CC(N)=O)NC(=O)CNC(=O)[C@H](CO)NC(=O)[C@H](Cc1ccc(O)cc1)NC(=O)[C@H](CO)NC(=O)[C@H](CO)NC(=O)[C@H](CC(N)=O)NC(=O)COCCOCCNC(=O)CN1CCN(CC(=O)O)CCN(CC(=O)O)CCN(CC(=O)O)CC1)C(=O)N[C@@H](CC(C)C)C(N)=O` [copper-64 labelled]: “maximum pancreas uptake” 15.6 %IA/cc (dynamic PET; tamoxifen-induced PDAC mouse model, pancreas; 2.5 min, CLDN4-expressing tumours).
`CCCCCCCC(=O)NCCCC[C@H](NC(=O)CCCCCCC)C(=O)N[C@@H](CCCCNC(=O)CCCCCCC)C(=O)NCC(=O)NCC(=O)NCC(=O)N[C@@H](CS)C(=O)N[C@@H](CCCNC(=N)N)C(=O)N[C@@H](CCCCN)C(=O)N1CCC[C@H]1C(=O)N[C@@H](CS)C(=O)N[C@@H](CCCNC(=N)N)C(=O)N[C@@H](CCCCN)C(=O)N1CCC[C@H]1C(N)=O` gave an MIC of 8 µM (Candida albicans; broth microdilution; SP 3902, RPMI-1640; 48 h, 30 °C).
With `CC(=O)N[C@@H](CC(C)C)C(=O)N[C@H]1CSSC[C@@H](C(=O)N2CCC[C@H]2C(N)=O)NC(=O)[C@H]([C@@H](C)O)NC(=O)[C@H](C(C)C)NC(=O)[C@H]([C@@H](C)O)NC(=O)CNC(=O)[C@H](CCCCN)NC(=O)[C@H](Cc2ccccc2)NC(=O)[C@H](Cc2ccc(O)cc2)NC(=O)[C@H](CCCCN)NC(=O)[C@H](CCC(=O)O)NC(=O)[C@H](Cc2ccccc2)NC(=O)[C@H](CCCNC(=N)N)NC(=O)[C@H](CCCCN)NC(=O)[C@H](CC(C)C)NC(=O)[C@H](CC(=O)O)NC(=O)[C@@H]2CCCN2C(=O)[C@H](CCCCN)NC(=O)[C@H](C(C)C)NC(=O)[C@H](CCCCN)NC(=O)[C@H](CCCCN)NC(=O)[C@H]([C@@H](C)O)NC1=O` the MIC was over 40 µM (Aeromonas hydrophila; broth dilution; 24 h).
With `CC[C@H](C)[C@@H]1NC(=O)[C@@H]([C@@H](C)O)NC(=O)CNC(=O)[C@H](CC(=O)O)NC(=O)CNC(=O)[C@H](CC(=O)O)NC(=O)CNC(=O)[C@H]2CCCCN2C(=O)[C@@H](NC(=O)[C@H](CC(=O)O)NC(=O)/C=C/CCCCCCCCCC(C)C)CNC(=O)[C@@H]2CCCN2C1=O` the MIC was 4 µg/mL (Staphylococcus aureus; broth microdilution; BR-VRSA strain 880, Mueller-Hinton broth, Mg2+ 10 mg/L; 16 h, with: Ca2+ 2.5 mM).
`CS(C)(=O)=Nc1ccc(-c2ccc(-c3nc4cc(O[C@@H]5CO[C@H]6[C@@H]5OC[C@H]6O)[nH]c4cc3F)cc2)cc1` has an inhibition of 6% (Protein kinase C alpha type (PRKCA, Homo sapiens, UniProt P17252); enzyme activity, inhibitor; 10 µM).
`O=C1NC2(CC2)COc2ncc(F)cc2[C@H]2COCCN2c2ccn3ncc1c3n2` — result for “organ-to-brain weight ratio”: 6.71 ± 1.11% (Sprague-Dawley rat, female, ovaries; oral, 20 mg/kg/day, 4 weeks, end of treatment).
`CC1(C)S[C@@H]2[C@H](NC(=O)[C@H](NC(=O)C3=C(O)C(c4ccccc4F)NC3=O)c3ccccc3)C(=O)N2[C@H]1C(=O)O` (stereo partly drawn) gave an MIC of over 200 µg/mL (Escherichia coli; broth microdilution; isolate IU 356 A, KPC-3, VIM-1, TEM; with: clavulanic acid 6 µg/mL).
`CCCCCCCCCC(=O)NCCCC[C@H](NC(=O)CCCCCCCCC)C(=O)N[C@@H](CCCCNC(=O)CCCCCCCCC)C(=O)NCC(=O)NCC(=O)NCC(=O)N[C@@H](CS)C(=O)N[C@@H](CCCNC(=N)N)C(=O)N[C@@H](CCCCN)C(=O)N1CCC[C@H]1C(=O)N[C@@H](CS)C(=O)N[C@@H](CCCNC(=N)N)C(=O)N[C@@H](CCCCN)C(=O)N1CCC[C@H]1C(N)=O` has an MIC of 32 µM (Candida albicans; broth microdilution; SP 3876, RPMI-1640; 48 h, 30 °C).
`COc1ccc(C2=[N+]([O-])c3ccccc3N3CC(C)(C)CN=C23)cc1` gave an MIC of 0.25 to 1 µg/mL (Fusobacterium nucleatum).
`CC(C)(C)C(=O)OCOP(=O)(OCOC(=O)C(C)(C)C)C1CCCN(O)C1=O` (stereo not drawn) has a GI50 of 314 nM (Hs-578T).

Repeated from above:
The relative abundance of `COc1ccccc1-c1n[nH]c2nc(NC3CCN(C(=O)Cc4ccc(F)cc4F)CC3)ncc12` is reported as 1.23 (bead binding, competition bead pull-down, refers to: LINJ.26.0840; Leishmania donovani axenic amastigote extract; 10 µM; relative to: vehicle).
